Experimental data from different studies.
Compare with care: the assays were run in different laboratories. ± marks the error that the study gave.
Chain of UniProt O43194 (whole entry, looked up): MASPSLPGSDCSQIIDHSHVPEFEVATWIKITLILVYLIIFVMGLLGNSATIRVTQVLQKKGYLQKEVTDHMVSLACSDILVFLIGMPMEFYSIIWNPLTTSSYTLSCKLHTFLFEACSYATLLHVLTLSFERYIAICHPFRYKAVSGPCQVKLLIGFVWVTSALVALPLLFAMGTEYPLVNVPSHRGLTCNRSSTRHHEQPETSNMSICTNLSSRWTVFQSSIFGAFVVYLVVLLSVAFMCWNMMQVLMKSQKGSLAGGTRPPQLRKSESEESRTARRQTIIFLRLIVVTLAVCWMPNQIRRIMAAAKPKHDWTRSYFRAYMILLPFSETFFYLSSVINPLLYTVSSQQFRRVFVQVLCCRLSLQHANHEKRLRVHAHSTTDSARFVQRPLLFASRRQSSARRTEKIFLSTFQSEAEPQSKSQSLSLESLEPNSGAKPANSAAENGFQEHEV
Chain of UniProt Q9Y3S1 (whole entry, looked up): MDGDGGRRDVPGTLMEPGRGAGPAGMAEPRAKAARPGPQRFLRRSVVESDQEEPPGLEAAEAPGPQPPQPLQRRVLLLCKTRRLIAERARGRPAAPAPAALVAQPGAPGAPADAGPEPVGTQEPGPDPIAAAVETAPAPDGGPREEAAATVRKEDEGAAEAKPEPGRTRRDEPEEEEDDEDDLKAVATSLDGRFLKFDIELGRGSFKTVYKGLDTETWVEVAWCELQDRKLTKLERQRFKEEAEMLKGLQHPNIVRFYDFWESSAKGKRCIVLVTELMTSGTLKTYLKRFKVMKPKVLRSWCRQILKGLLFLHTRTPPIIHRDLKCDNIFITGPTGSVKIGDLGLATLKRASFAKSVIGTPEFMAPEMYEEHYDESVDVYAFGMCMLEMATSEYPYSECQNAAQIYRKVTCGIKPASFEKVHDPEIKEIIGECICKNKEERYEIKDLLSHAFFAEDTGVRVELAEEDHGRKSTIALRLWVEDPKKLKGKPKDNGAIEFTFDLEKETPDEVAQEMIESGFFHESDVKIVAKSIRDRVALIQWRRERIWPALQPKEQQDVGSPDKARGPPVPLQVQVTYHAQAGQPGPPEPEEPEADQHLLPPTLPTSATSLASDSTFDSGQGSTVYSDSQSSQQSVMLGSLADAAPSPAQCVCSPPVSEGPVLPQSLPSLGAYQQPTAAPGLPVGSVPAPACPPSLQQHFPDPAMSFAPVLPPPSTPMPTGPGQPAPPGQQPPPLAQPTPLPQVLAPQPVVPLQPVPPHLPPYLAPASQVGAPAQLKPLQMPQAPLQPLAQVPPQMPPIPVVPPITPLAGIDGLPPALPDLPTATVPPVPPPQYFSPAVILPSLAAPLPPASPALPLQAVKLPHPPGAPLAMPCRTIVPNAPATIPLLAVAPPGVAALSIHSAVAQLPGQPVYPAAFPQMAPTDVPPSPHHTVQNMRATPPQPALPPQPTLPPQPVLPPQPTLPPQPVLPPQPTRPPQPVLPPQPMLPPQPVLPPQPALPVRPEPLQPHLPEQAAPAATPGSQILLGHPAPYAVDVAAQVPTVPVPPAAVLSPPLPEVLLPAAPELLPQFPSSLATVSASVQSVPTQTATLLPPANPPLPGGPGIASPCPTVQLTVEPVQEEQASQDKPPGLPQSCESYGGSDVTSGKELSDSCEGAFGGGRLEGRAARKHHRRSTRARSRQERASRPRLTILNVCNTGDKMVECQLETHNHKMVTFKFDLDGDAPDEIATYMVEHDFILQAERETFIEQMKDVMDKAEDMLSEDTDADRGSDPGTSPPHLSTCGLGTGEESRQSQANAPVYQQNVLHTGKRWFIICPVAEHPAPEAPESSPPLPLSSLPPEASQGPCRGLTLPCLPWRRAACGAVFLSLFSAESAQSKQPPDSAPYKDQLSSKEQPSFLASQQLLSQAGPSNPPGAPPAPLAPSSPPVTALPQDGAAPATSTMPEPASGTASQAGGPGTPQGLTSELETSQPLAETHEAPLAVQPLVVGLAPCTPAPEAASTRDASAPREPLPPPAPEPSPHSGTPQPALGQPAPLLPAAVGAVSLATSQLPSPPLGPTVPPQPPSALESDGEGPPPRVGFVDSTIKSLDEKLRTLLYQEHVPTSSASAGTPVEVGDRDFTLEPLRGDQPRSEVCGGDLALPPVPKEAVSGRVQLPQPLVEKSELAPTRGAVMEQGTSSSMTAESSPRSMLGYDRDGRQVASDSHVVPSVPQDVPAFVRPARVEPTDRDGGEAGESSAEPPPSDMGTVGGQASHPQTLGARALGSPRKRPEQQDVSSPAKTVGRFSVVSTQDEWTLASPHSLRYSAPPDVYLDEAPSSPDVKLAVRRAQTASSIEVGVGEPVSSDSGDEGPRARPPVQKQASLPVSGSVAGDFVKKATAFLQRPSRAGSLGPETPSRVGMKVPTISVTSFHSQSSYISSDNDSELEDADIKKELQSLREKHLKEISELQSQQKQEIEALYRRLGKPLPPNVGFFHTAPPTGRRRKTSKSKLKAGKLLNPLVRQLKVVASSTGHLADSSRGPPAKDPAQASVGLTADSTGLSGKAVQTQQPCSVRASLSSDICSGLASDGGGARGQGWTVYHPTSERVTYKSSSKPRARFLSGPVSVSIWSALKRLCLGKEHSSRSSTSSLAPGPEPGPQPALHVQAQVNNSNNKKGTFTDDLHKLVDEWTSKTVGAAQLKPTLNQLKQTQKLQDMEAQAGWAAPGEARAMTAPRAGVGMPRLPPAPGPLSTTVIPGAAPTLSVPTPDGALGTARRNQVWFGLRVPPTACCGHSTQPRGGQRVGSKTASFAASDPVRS
Chain of UniProt P34972 (whole entry, looked up): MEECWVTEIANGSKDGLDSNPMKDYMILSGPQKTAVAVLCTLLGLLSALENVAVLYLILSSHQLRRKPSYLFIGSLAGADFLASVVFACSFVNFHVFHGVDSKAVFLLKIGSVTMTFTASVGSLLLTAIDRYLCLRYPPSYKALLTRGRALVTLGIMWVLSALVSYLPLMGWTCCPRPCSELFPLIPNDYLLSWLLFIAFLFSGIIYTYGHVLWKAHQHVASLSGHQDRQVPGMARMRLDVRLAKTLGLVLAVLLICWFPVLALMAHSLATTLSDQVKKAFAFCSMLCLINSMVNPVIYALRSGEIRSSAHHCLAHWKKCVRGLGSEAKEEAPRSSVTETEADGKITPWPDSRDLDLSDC
Chain of UniProt P53680 (whole entry, looked up): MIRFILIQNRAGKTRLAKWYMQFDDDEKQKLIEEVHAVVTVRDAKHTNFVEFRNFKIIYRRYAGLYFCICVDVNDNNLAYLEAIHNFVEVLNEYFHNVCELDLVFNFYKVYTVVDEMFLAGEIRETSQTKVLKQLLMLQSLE
Chain of UniProt Q8TBX8 (whole entry, looked up): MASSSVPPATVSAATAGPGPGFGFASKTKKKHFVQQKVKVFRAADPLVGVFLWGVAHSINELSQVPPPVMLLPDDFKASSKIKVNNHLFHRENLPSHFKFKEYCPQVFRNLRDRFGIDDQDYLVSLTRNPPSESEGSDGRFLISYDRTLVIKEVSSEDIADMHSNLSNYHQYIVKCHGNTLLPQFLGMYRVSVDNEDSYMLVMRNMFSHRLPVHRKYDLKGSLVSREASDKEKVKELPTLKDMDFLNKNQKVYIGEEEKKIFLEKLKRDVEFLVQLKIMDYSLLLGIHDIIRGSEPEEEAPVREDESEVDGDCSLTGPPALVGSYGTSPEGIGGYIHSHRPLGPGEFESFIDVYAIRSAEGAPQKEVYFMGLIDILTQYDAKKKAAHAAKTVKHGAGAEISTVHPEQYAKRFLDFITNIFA

`Oc1ccc2c3c1O[C@H]1[C@@H](O)CC[C@@]4(O)[C@@H](C2)N(CC2CCC2)CC[C@]314` — result for “log2 fold change”: 0.679 (G-protein coupled receptor 39 (GPR39, Homo sapiens, UniProt O43194); β-arrestin recruitment, TANGO luminescence; concentration not given; relative to: basal luminescence).
`COC(=O)[C@@H](NC(=O)c1nn(Cc2ccc(F)cc2)c2ccccc12)C(C)(C)C`: “Gi GTP turnover median” 100% (Cannabinoid receptor 2 (CNR2, Homo sapiens, UniProt P34972); GTPase; relative to: compound).
For `CCN1CCN(Cc2ccc(NC(=O)c3ccc(C)c(Oc4ccnc5[nH]ccc45)c3)cc2C(F)(F)F)CC1`, the inhibition was -23.2% (Phosphatidylinositol 5-phosphate 4-kinase type-2 gamma (PIP4K2C, Homo sapiens, UniProt Q8TBX8); A-375; concentration not given).
`C[C@H]1CN(c2n[nH]c3nc(N[C@H]4CC[C@H](NS(=O)(=O)CCC(F)(F)F)CC4)ncc23)CCO1` has a remaining binding of 1.08 (AP-2 complex subunit sigma (Homo sapiens, UniProt P53680); Kinobeads competition, measured: AP2S1; 0.032 µM, unit not given; relative to: vehicle).
The median ratio of `O=C(c1ccc(Cl)cc1)N1CCN2C(=O)N(OC(=O)N3CCOc4ccccc43)C(=O)C2C1` (stereo not drawn) is reported as 1.14 (Dipeptidyl peptidase 9 (DPP9, Homo sapiens, UniProt Q86TI2); enzyme activity, inhibitor, MS-based ABPP; SW-620 in situ; 10 µM, 2 h, 37 °C; relative to: compound over DMSO, lower = stronger inhibition).
`COc1ccc2c3c1O[C@H]1CC(=O)C=C[C@@]31CCNC2` gave a Km of 332 ± 28.7 µM (Leucojum aestivum; N-methylation of narwedine, substrate, LC-MS/MS; added: SAM 2 mM).
For `CN[C@]1(c2ccccc2Cl)CCCCC1=O`, the inhibition was -16% (muscle nicotinic acetylcholine receptor; radioligand binding, antagonist, radioligand displacement; 30 µM).
For `CC[C@H](C)[C@H](NC(=O)CNC(=O)[C@@H](N)CCCCN)C(=O)N[C@@H](CC(C)C)C(=O)N[C@@H](CCCCN)C(=O)N[C@@H](CCCNC(=N)N)C(=O)N[C@@H](CCC(=O)O)C(=O)N[C@@H](CCCCN)C(=O)N[C@@H](CCCNC(=N)N)C(=O)N[C@@H](CC(C)C)C(=O)N[C@@H](CCCNC(=N)N)C(=O)N[C@@H](CCCNC(=N)N)C(=O)N[C@@H](CCCCN)C(=O)N[C@@H](CC(N)=O)C(=O)N[C@H](C(=O)N[C@@H](Cc1c[nH]cn1)C(=O)N[C@@H](Cc1c[nH]c2ccccc12)C(=O)N1CCC[C@H]1C(=O)N[C@@H](CCC(=O)O)C(=O)N[C@@H](CCC(=O)O)C(=O)NCC(=O)N[C@@H](CCCCN)C(=O)N[C@@H](CC(C)C)C(=O)N[C@@H](CCCNC(=N)N)C(=O)N[C@@H](CCC(=O)O)C(=O)N[C@@H](Cc1ccccc1)C(=O)N[C@@H](Cc1ccccc1)C(=O)N[C@@H](Cc1ccccc1)C(=O)N[C@@H](Cc1ccccc1)C(=O)N[C@@H](CCC(=O)O)C(=O)N[C@@H](CC(C)C)C(=O)N[C@@H](CC(=O)O)C(=O)N[C@@H](CCC(=O)O)C(=O)N[C@@H](C)C(=O)N[C@@H](CCC(=O)O)C(=O)N[C@@H](CCCNC(=N)N)C(=O)N[C@H](C(=O)N[C@@H](CC(N)=O)C(=O)N[C@H](C(=O)O)C(C)C)C(C)C)C(C)C`, “log2 fold change” read -0.17 (HeLa and HEK-293T cells; phosphatase bead binding, competitive inhibitor, PIB pulldown iBAQ LC-MS/MS, measured: SLMAP; concentration not given; relative to: untreated control).
`O=C(Oc1ccc([N+](=O)[O-])cc1)N1CCC(C(O)(c2ccc3c(c2)OCO3)c2ccc3c(c2)OCO3)CC1` gave a maximum inhibition of 19.5% (human coronavirus OC43; virus-induced cell killing; MRC-5; screen).
With `[2H]c1c([2H])c([C@]2([2H])CCCN2C(=O)C(C)(C)Oc2ccc3cn[nH]c3c2)c([2H])c([2H])c1C([2H])([2H])[2H]` the remaining binding was 100% (Serine/threonine-protein kinase WNK2 (WNK2, Homo sapiens, UniProt Q9Y3S1); KINOMEscan; 1 µM; relative to: DMSO control).
`OC[C@H]1O[C@@H](n2ccc3c(SCc4ccc(Cl)cc4Cl)ncnc32)[C@H](O)[C@@H]1O` gave a survival of 100% (Toxoplasma gondii; [3H]uracil incorporation; human fibroblasts, adenosine kinase deficient; 50 µM).
For `CC1(C)C(N(O)C(=O)Nc2ccc(Cl)cc2)N(c2ccc(Cl)cc2)C(=O)N1CC(=O)N/N=C/C=C/c1ccc([N+](=O)[O-])o1` (stereo not drawn), the maximum inhibition was 21.4% (human coronavirus OC43; virus-induced cell killing; MRC-5; screen).
`OC[C@H]1O[C@@H](n2ccc3c(SCc4ccc(Cl)c(Cl)c4)ncnc32)[C@H](O)[C@@H]1O` has a survival of 100% (Toxoplasma gondii; [3H]uracil incorporation; human fibroblasts, adenosine kinase deficient; 10 µM).
The inhibition of `COc1ccc(N2C(=O)N(c3c(C)cccc3Cl)Cc3cnc(Nc4ccc(C5CCN(C)CC5)cc4OC)nc32)nc1` is reported as 2.38% (Dual specificity tyrosine-phosphorylation-regulated kinase 1B (DYRK1B, Homo sapiens, UniProt Q9Y463); kinase activity; 0.5 µM).
`Cc1ccc(CSc2ncnc3c2ccn3[C@@H]2O[C@H](CO)[C@@H](O)[C@H]2O)cc1` has a survival of 100% (Toxoplasma gondii; [3H]uracil incorporation; human fibroblasts, adenosine kinase deficient; 25 µM).
`Cc1ccccc1CN1C(=O)c2ccccc2Sc2ccc(C(=O)NCCCN3CCOCC3)cc21` gave a cytotoxicity efficacy of 0% (Vero-E6; CellTiter-Glo ATP; concentration not given, 72 h, first round 5-point; relative to: DMSO 0%, hyamine -100%, more negative, more toxic).
With `OC[C@H]1O[C@@H](n2ccc3c(SCc4ccc(F)cc4F)ncnc32)[C@H](O)[C@@H]1O` the survival was 100% (Toxoplasma gondii; [3H]uracil incorporation; human fibroblasts, adenosine kinase deficient; 10 µM).
The maximum response of `COc1ccc(-c2cn3c(n2)sc2cc(C(=O)NCCCN4CCCCCC4)ccc23)cc1` is reported as -25.3% (Vero-E6; CellTiter-Glo ATP; 72 h, second round 5-point; relative to: DMSO 0%, hyamine -100%, more negative, more toxic).

A few entries again:
`Oc1ccc2c3c1O[C@H]1[C@@H](O)CC[C@@]4(O)[C@@H](C2)N(CC2CCC2)CC[C@]314` — result for “log2 fold change”: 0.679 (G-protein coupled receptor 39 (GPR39, Homo sapiens, UniProt O43194); β-arrestin recruitment, TANGO luminescence; concentration not given; relative to: basal luminescence).
`COC(=O)[C@@H](NC(=O)c1nn(Cc2ccc(F)cc2)c2ccccc12)C(C)(C)C`: “Gi GTP turnover median” 100% (Cannabinoid receptor 2 (CNR2, Homo sapiens, UniProt P34972); GTPase; relative to: compound).
